Assay results of several laboratories.
Numbered parts are unrelated; each lists some results of a single study. Values joined by “and” are separate records of one study, mostly repeats; a detail may differ.

Study 1 — organism: Arabidopsis thaliana; strain: Col-0; concentration: 100 µg/mL; setting: seed germination, single repetition
The hypocotyl length of O=C(O)C1(O)Oc2cc(F)ccc2N(Cc2ccccc2)C1=O (centres unmarked) is reported as 0.01 cm.
For CCCN1C(=O)C(O)(C(=O)O)Oc2cc(F)ccc21 (centres unmarked), the hypocotyl length was 0.77 cm and 0.74 cm and 0.78 cm and 0.75 cm and 0.76 cm.
The hypocotyl length of Cc1ccc2c(c1)OC(O)(C(=O)O)C(=O)N2Cc1ccccc1 (centres unmarked) is reported as 1.02 cm and 1.05 cm and 1.17 cm and 1.16 cm.
O=C(O)C1(O)Oc2ccccc2N(Cc2ccccc2)C1=O (centres unmarked) gave a hypocotyl length of 1.32 cm and 1.34 cm and 1.31 cm and 1.33 cm.
COc1ccc2c(c1)OC(O)(C(=O)O)C(=O)N2Cc1ccccc1 (centres unmarked) gave a hypocotyl length of 1.02 cm and 1.1 cm and 1.01 cm and 1.09 cm and 1.11 cm.

Study 2 — cell line: AsPC-1; technique: in-cell ELISA
SMILES: Cc1ncsc1-c1ccc(C2(NC(=O)C3CC(O)CN3C(=O)C(NC(=O)c3ccc(COc4c(-c5c(C)c(F)cc6[nH]ncc56)c(C5CC5)cc5c(N6CC7CC6CN7)nc(OC6CCOCC6)nc45)cc3)C(C)C)CC2)cc1 (centres unmarked)
1 µM, individual replicates — phospho-ERK1/2 level: 9.11% and 11.9% and 8.98% and 11.5% and 11.7% and 9.87%.
For 3 nM, individual replicates: phospho-ERK1/2 level read 86.4% and 96.2% and 94.3% and 99.4% and 102%.
For 10 nM, per-experiment values: phospho-ERK1/2 level read 88.4% and 102% and 97.4%.
100 nM, individual replicates — phospho-ERK1/2 level: 69.8% and 70.3% and 55.5% and 67.5% and 56.9% and 71.9%.
It gave 9.88% and 9.1% and 6.39% for phospho-ERK1/2 level (3 µM, per-experiment values).

Study 3 — cell line: U-87 MG; concentration: concentration not given; reference: DMSO
Structure (SMILES): CCN1/C(=C/C=C2\CCCC(/C=C/C3=[N+](CC)c4ccccc4C3(C)C)=C2NCCCCCCCCN2CCC(Nc3nc4ccccc4n3Cc3ccc(F)cc3)CC2)C(C)(C)c2ccccc21
refers to: GALNT5 mRNA — “log2 fold change”: -2.11.
It gave -1.09 for “log2 fold change” (refers to: B4GAT1 mRNA).
For refers to: TRIOBP mRNA: “log2 fold change” read -0.913.
The “log2 fold change” was -1.21 (refers to: PRR16 mRNA).
For refers to: CRHBP mRNA: “log2 fold change” read 0.993.
The “log2 fold change” was -3.48 (refers to: PLEKHG4 mRNA).
It gave -0.938 for “log2 fold change” (refers to: GATA3 mRNA).
The “log2 fold change” was -2.98 (refers to: KCTD4 mRNA).
refers to: NRBF2 mRNA — “log2 fold change”: 1.24.
The “log2 fold change” was -2.32 (refers to: NEXN mRNA).
It gave 1.54 for “log2 fold change” (refers to: LARP6 mRNA).

Study 4 — technique: KINOMEscan; concentration: 1000 nM; reference: control
SMILES: Cc1ccc(O)c(C)c1-c1cnc2[nH]c(-c3cnc(N4CCC5(CC4)CC(N4CCN(c6ccc(N[C@H]7CCC(=O)NC7=O)cc6F)CC4)CO5)nc3)cc2c1C#N (single isomer, unassigned)
BRAF — remaining binding: 14%.
It gave 19% for remaining binding (SRC).
The remaining binding was 28% (RAF1).
The remaining binding was 86% (CSNK1A1).
The remaining binding was 71% (FRK).

For quick reference, copied from above (study 3):
It gave -0.938 for “log2 fold change” (refers to: GATA3 mRNA).
refers to: GALNT5 mRNA — “log2 fold change”: -2.11.
